Measured values pooled from the literature.
Every numbered part comes from another study and shows a few of its results, in no order. Changes are numbered by the printed parent chain.

Sample 1
Target: Interferon regulatory factor 3, full length, phosphomimetic (IRF3, Homo sapiens, UniProt Q14653, residues 1-427, S386D/S396D/S398D/S402D/T404D/S405D)
Technique: protein-binding microarray
Form: double-stranded DNA, one strand shown
Sample: in vitro
Tested at: 2540 nM top
Setting: 60-bp whole probe
With: salmon DNA 0.4 mg/ml
Baseline: random background probes
Direction: higher = stronger binding
Shared flanks, not repeated: GCCTAGCAC … GTCTTGATTCGCTTGACGCTGCTG
Construct (chain): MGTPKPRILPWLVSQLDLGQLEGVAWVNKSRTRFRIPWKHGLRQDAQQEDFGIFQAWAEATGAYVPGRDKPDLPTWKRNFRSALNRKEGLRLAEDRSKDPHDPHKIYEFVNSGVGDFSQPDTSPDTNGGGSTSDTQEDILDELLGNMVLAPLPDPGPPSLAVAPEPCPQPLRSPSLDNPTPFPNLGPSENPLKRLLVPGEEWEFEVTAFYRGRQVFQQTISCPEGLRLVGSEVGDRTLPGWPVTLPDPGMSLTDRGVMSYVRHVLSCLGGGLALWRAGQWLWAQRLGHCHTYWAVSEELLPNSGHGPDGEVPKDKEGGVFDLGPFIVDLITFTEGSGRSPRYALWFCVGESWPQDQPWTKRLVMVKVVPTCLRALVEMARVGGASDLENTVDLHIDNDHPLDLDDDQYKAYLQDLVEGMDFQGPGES
For `GACTATGCCGACTTTGGAAGTGTGCTA`, “fitted relative affinity” read -0.31 z-score.
`GACGGGATCGGTATCGGGACGTGCTAG` — result for “fitted relative affinity”: 1.79 z-score.
`GACGGTATCCTTATTCTGACGTGCTAG` — result for “fitted relative affinity”: 5.06 z-score.
Under “fitted relative affinity”, `GACGGTATCCTTTTCCAGACGTGCTAG` is recorded as 8.03 z-score.
Under “fitted relative affinity”, `GACGACCTGAGTCTCGAGACGTGCTAG` is recorded as -0.628 z-score.
Under “fitted relative affinity”, `TTAGGTATCGGGTATCTGTTAGTGCTA` is recorded as 1.24 z-score.
For `CTGGGGGCAGTTTCATGGCCGTGCTAG`, “fitted relative affinity” read -0.173 z-score.
`TTAGGACTGGGTATGGGTTAGTGCTAG`: “fitted relative affinity” -0.933 z-score.
`TTTGGACTGGGTCTCGGTTAGTGCTAG` — result for “fitted relative affinity”: -0.711 z-score.
Under “fitted relative affinity”, `GACGGTATCGGGGATCGGGACGTGCTA` is recorded as 0.554 z-score.
Under “fitted relative affinity”, `GACGATATCGGGACTGCAGACGTGCTA` is recorded as 0.125 z-score.
`GACGATTGCGGGACTGGAGACGTGCTA`: “fitted relative affinity” -0.23 z-score.
`TTAGGTCTCGCACTGGGTTAGTGCTAG`: “fitted relative affinity” -0.569 z-score.
Under “fitted relative affinity”, `TTAGGATTGGGGTTTCGGTTAGTGCTA` is recorded as 2.6 z-score.

Sample 2
Target: CCNB1, cyclin fold, Cln2 fusion (human)
Technique: yeast growth competition, sequencing
Sample: yeast
Setting: weak parent motif
Baseline: not given
Direction: higher = stronger binding
Parent: CDC25A docking peptide (human); PPHRRRLLFACSP
`PPHRRRLLNACSP [F9N]` — result for “normalised enrichment score”: 0.406.
For `PPHRRRLLFACSM [P13M]`, “normalised enrichment score” read 0.308.
Under “normalised enrichment score”, `PPHRERLLFACSP [R5E]` is recorded as 0.15.
`PYHRRRLLFACSP [P2Y]`: “normalised enrichment score” 1.12.
`PPHRRRLPFACSP [L8P]` — result for “normalised enrichment score”: -0.219.
`PPHPRRLLFACSP [R4P]` — result for “normalised enrichment score”: 0.0115.
For `PPHRFRLLFACSP [R5F]`, “normalised enrichment score” read 0.308.
Under “normalised enrichment score”, `PPHRRRLLFNCSP [A10N]` is recorded as -0.0057.
`PPHCRRLLFACSP [R4C]`: “normalised enrichment score” 0.923.
For `PPHHRRLLFACSP [R4H]`, “normalised enrichment score” read -0.134.
`PPHRRRLLFACTP [S12T]` — result for “normalised enrichment score”: 0.572.
`PPHRTRLLFACSP [R5T]` — result for “normalised enrichment score”: 0.199.
For `PPHRRRFLFACSP [L7F]`, “normalised enrichment score” read 0.271.
Under “normalised enrichment score”, `PPHRRRLLFACSW [P13W]` is recorded as -0.00645.
`PMHRRRLLFACSP [P2M]` — result for “normalised enrichment score”: 0.687.
`CPHRRRLLFACSP [P1C]` — result for “normalised enrichment score”: 0.192.
Under “normalised enrichment score”, `PPHRRRLLQACSP [F9Q]` is recorded as -0.103.
`PPHDRRLLFACSP [R4D]`: “normalised enrichment score” 0.223.
`PPHRRRLLFALSP [C11L]` — result for “normalised enrichment score”: 0.432.
`PPHRRQLLFACSP [R6Q]`: “normalised enrichment score” 0.717.
`PPHRRRLLFACVP [S12V]` — result for “normalised enrichment score”: 1.05.

Sample 3
Target: MAFK, bZIP domain (human)
Technique: DHFR protein complementation
Sample: yeast
Setting: single substitutions, most at no-binding floor
Baseline: wild-type JUN-FOS pair
Direction: higher = stronger binding
Parent: JUN, bZIP domain (human); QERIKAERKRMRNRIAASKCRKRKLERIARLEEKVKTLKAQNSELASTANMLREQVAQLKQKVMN; partner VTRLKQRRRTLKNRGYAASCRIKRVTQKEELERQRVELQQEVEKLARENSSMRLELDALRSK
`L59G` gave a binding fitness of -1.42 natural log.
The binding fitness of `T37V` is reported as -1.43 natural log.
`V56M` gave a binding fitness of -1.45 natural log.
`R30Y` has a binding fitness of -1.48 natural log.
The binding fitness of `A40Q` is reported as -1.49 natural log.
`A29G` has a binding fitness of -1.48 natural log.
`L38A` gave a binding fitness of -1.46 natural log.
`A29H` has a binding fitness of -1.56 natural log.
For `L45I`, the binding fitness was -1.48 natural log.
`N42Y` has a binding fitness of -1.34 natural log.
For `A29F`, the binding fitness was -1.69 natural log.
For `K36P`, the binding fitness was -1.48 natural log.
`A29Y` has a binding fitness of -1.22 natural log.

Single results of other studies
`PhoQ, residues 284 288 289 292 302 303 TNASYF` gave a fold induction of 1.29 (PhoP, residues 12 14 15 18 19 SYFRT (Escherichia coli, UniProt P23836); Sort-seq, refers to: YFP reporter; E. coli; PhoQ-PhoP variant library, with: 10 µM Mg2+; baseline: high Mg2+ state, higher = stronger signaling).

Excerpt of the above (sample 2):
`PPHRRRLLNACSP [F9N]` — result for “normalised enrichment score”: 0.406.
For `PPHRRRLLFACSM [P13M]`, “normalised enrichment score” read 0.308.
Under “normalised enrichment score”, `PPHRERLLFACSP [R5E]` is recorded as 0.15.
`PYHRRRLLFACSP [P2Y]`: “normalised enrichment score” 1.12.
`PPHRRRLPFACSP [L8P]` — result for “normalised enrichment score”: -0.219.
`PPHPRRLLFACSP [R4P]` — result for “normalised enrichment score”: 0.0115.
For `PPHRFRLLFACSP [R5F]`, “normalised enrichment score” read 0.308.
Under “normalised enrichment score”, `PPHRRRLLFNCSP [A10N]` is recorded as -0.0057.
